Assay results gathered from unrelated publications.
Lines come from different studies, so protocols differ.
Target: MAP kinase-activated protein kinase 2 (MAPKAPK2, Homo sapiens, UniProt P49137)
Chain of UniProt P49137 (whole entry, unmodified, looked up): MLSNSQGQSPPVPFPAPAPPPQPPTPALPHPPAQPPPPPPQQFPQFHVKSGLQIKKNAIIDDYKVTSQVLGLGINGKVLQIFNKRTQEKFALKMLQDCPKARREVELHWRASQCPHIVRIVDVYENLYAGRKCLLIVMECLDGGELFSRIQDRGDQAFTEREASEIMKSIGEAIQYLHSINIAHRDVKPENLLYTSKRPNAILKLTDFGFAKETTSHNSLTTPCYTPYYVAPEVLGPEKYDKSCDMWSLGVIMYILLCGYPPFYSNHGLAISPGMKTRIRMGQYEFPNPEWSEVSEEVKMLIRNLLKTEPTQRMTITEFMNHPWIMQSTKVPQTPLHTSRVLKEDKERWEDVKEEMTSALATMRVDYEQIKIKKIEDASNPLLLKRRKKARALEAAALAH

Compound | test | setting | how to read | endpoint | result
CC(=O)N1c2ccc(-c3ccc(CNC(=O)c4cn5cc(-c6cnc(N)nc6)nc(N6CCOCC6)c5n4)cc3)cc2CC[C@@H]1C | KINOMEscan | 10 µM |  | remaining binding | 100%
COc1c(OCCCN2CCOCC2)ccc2c1N=C(NC(=O)c1cnc(N)nc1)N1CCN=C21 | kinase activity, inhibitor | 1 µM | baseline: untreated control | remaining activity | 102%
Cc1cccc(-c2ccc3nc(NC(=O)C4CCCCC4)nn3c2)c1 | enzyme activity, Dundee kinase panel | 10 µM |  | remaining activity | 105%
CN1CCN(Cc2ccc(NC(=O)c3cccc(C#Cc4cnc(N)c5ncccc45)c3)cc2C(F)(F)F)CC1 | cell-free assay, competition with immobilised ligand | 50 nM |  | remaining binding | 100%
Cc1ccc(C)c(-c2ccc3nc(NC(=O)C4CCCCC4)nn3c2)c1 | enzyme activity, Dundee kinase panel | 10 µM |  | remaining activity | 102%
CN1CC[C@@H](COc2cnc(C#N)cc2-c2ccn3nc(NC(=O)C4CC4)cc3c2)C1 | enzyme activity, inhibitor | 1 µM |  | inhibition | 15%
C=CC(=O)N1CCCC(n2c(=O)c3ncccc3n(Cc3ccc(Oc4ccccc4)cc3)c2=O)C1 (stereo not shown) | cell-free assay, competition with immobilised ligand | 1 µM |  | remaining binding | 100%
CC(C)=CC1OC(C)(C)C2C=C3C(=O)C(Cl)=CC(O)C3C3C(O)C4OC4C(=O)C132 (stereo not shown) | cell-free assay, competition with immobilised ligand | 10 µM |  | remaining binding | 96%
NC(=O)C[C@H]1CCc2sc3ncnc(O[C@H]4CC[C@H](N5CCOCC5)CC4)c3c21 | enzyme activity, inhibitor | 10 µM |  | inhibition | 1%
C=CC(=O)N1CCc2ccc(-n3c(=O)ccc4cnc5ccc(-c6cnn(C)c6)cc5c43)cc21 | KINOMEscan | 1 µM | baseline: DMSO control | remaining binding | 100%
C=C1CCCCCCCCCC(CO)C1=O (stereo not shown) | cell-free assay, competition with immobilised ligand | 10 µM |  | remaining binding | 100%
O=C=[N][Ru-4]123([n]4c5ccc(O)cc5c5c6c(c7cc(F)c[n+]1c7c54)C(=O)NC6=O)[S+]1CC[S+]2CC[S+]3CC1 (stereo not shown) | enzyme activity | 100 nM, human enzyme, with: 10 µM ATP | baseline: untreated | remaining activity | 115%
Cc1cccc(O[C@H]2CCC[C@@H](C(C)CNCc3ccncc3)C2)c1 (relative stereo) | enzyme activity, inhibitor | 1 µM |  | inhibition | 2%
Cc1ccc(-c2c(/C=C(\C#N)C(=O)NC(C)C)n(CCCO)c3ncnc(N)c23)cc1 | cell-free assay, competition with immobilised ligand | 1 µM |  | remaining binding | 74%
Nc1ncc2c(n1)-c1c([nH]c3ccc(C4=CCOCC4)cc13)CCC2 | binding, competition with immobilised ligand | 1 µM |  | remaining binding | 100%
Cc1cnc2nc1Nc1cccc(c1)COC/C=C/COCc1cc(ccc1OCCN1CCOCC1)N2 | binding | 0.1 µM |  | remaining binding | 88%
CNC(=O)C1CCN(c2cc(C)c(F)cc2NC(=O)c2ccc(-c3cc(O)ccc3C)c(C)c2)CC1 | binding, competition with immobilised ligand | 1 µM |  | remaining binding | 96%
Cc1nc2c(F)cc(-c3nc(Nc4ccc(CNC(=O)CCCCCCC(=O)NO)cc4)ncc3F)cc2n1C(C)C | enzyme activity, inhibitor | 1 µM |  | inhibition | 13%
COc1cc(Nc2nc(C)cc(-c3cnn4nc(OC)ccc34)n2)cc(C(F)(F)F)c1 | inhibitor | 1 µM | baseline: control | remaining activity | 52%
C=CC(=O)Nc1cccc(-c2cnc3[nH]cc(C(=O)NC(C)(C)C)c3n2)c1 | enzyme activity, inhibitor | 0.1 µM |  | inhibition | 6%
Nc1ncc(-c2cc(-c3cnn(CC(F)(F)F)c3)ncc2F)nc1C(=O)NC1CNCC(F)C1 (stereo not shown) | enzyme activity | 1 µM | baseline: DMSO control | remaining activity | 99.4%
COc1ccc(NC(=O)Nc2ccc3c(c2)C(=O)N(C(C)CO)CC(C)C(CN(C)Cc2ccc4c(c2)OCO4)O3)cc1 (stereo not shown) | kinase activity, KinaseProfiler | 0.03 µM, species human | baseline: control | remaining activity | 96%

A few entries again:
Compound | test | setting | how to read | endpoint | result
CN1CC[C@@H](COc2cnc(C#N)cc2-c2ccn3nc(NC(=O)C4CC4)cc3c2)C1 | enzyme activity, inhibitor | 1 µM |  | inhibition | 15%
C=CC(=O)N1CCCC(n2c(=O)c3ncccc3n(Cc3ccc(Oc4ccccc4)cc3)c2=O)C1 (stereo not shown) | cell-free assay, competition with immobilised ligand | 1 µM |  | remaining binding | 100%
